Measured values collected from several papers.
Protocols differ between the studies behind these lines. Values joined by “and” are separate records of one study, mostly repeats; a detail may differ.
Target: Serine/threonine-protein kinase PAK 3 (PAK3, Homo sapiens, UniProt O75914)
UniProt O75914, sequence (whole entry, looked up): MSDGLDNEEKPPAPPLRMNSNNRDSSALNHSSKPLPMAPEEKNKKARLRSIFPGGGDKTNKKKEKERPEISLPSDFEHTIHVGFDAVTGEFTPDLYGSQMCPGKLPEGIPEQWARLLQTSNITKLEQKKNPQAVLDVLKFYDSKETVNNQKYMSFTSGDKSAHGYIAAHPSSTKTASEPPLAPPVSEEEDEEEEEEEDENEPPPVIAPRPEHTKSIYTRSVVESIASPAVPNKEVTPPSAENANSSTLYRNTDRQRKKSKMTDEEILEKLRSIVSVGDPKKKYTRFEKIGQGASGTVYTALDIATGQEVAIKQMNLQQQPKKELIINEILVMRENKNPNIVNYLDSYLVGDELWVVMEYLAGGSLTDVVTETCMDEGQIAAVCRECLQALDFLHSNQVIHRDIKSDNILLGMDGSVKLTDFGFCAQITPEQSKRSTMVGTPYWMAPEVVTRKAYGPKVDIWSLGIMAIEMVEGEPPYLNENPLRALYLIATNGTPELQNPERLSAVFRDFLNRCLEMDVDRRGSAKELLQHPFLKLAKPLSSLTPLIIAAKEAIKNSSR

The inhibition of `CN1CC[C@@H](COc2cnc(C#N)cc2-c2ccn3nc(NC(=O)C4CC4)cc3c2)C1` is reported as 3% (enzyme activity, inhibitor; 1 µM).
With `CC(C)=CC1OC(C)(C)C2C=C3C(=O)C(Cl)=CC(O)C3C3C(O)C4OC4C(=O)C132` (stereo not shown) the remaining binding was 98% (cell-free assay, competition with immobilised ligand; 10 µM).
The inhibition of `Cc1cccc(O[C@H]2CCC[C@@H](C(C)CNCc3ccncc3)C2)c1` (relative stereo) is reported as -13% (enzyme activity, inhibitor; 10 µM).
With `COc1c(OCCCN2CCOCC2)ccc2c1N=C(NC(=O)c1cnc(N)nc1)N1CCN=C21` the remaining activity was 65% (kinase activity, inhibitor; 1 µM; baseline: untreated control).
`COCC12C(=O)NC3C4(C(OC)CC1O)C1CC5(O)C(OC)C(O)C(OC(C)=O)(C1C5OC(=O)c1ccccc1)C3(O)C(OC)C24` (stereo not shown) gave a remaining activity of 107% and 96% (kinase activity, inhibitor, ProQinase kinase profiling; 25 µM; baseline: control).
For `O=C(Cc1ccc(OCc2ccccc2)cc1)NC1(C(=O)O)CCN(C(=O)c2ccc(-c3cccc(Cl)c3)cc2)CC1`, “activity vs control” read 109% (enzyme activity, inhibitor; 10 µM).
`NC(=O)[C@@H](O)C[C@H]1CCc2sc3ncnc(O[C@H]4CC[C@H](N5CCOCC5)CC4)c3c21` has an inhibition of 3% (enzyme activity, inhibitor; 10 µM).
The remaining activity of `O=C=[N][Ru-4]123([n]4c5ccc(O)cc5c5c6c(c7cc(F)c[n+]1c7c54)C(=O)NC6=O)[S+]1CC[S+]2CC[S+]3CC1` (stereo not shown) is reported as 98% (enzyme activity; 100 nM, human enzyme, with: 10 µM ATP; baseline: untreated).
The remaining binding of `C=CC(=O)N1CCc2ccc(-n3c(=O)ccc4cnc5ccc(-c6cnn(C)c6)cc5c43)cc21` is reported as 100% (KINOMEscan; 1 µM; baseline: DMSO control).
The remaining binding of `Cc1ccc(-c2c(/C=C(\C#N)C(=O)NC(C)C)n(CCCO)c3ncnc(N)c23)cc1` is reported as 69% (cell-free assay, competition with immobilised ligand; 1 µM).
The remaining binding of `Nc1ncc2c(n1)-c1c([nH]c3ccc(C4=CCOCC4)cc13)CCC2` is reported as 100% (binding, competition with immobilised ligand; 1 µM).
`C=CC(=O)Nc1cccc(-c2cnc3[nH]cc(C(=O)NC(C)(C)C)c3n2)c1` gave an inhibition of 5% and 6% (kinase activity; 0.1 µM).
`CCN1CCN(Cc2ccc(C(=O)Nc3ccc(C)c(NCc4cnc5[nH]ccc5c4OC)c3)cc2C(F)(F)F)CC1` gave a remaining binding of 80% (binding, competition with immobilised ligand; 1 µM).
The inhibition of `Cc1nc2c(F)cc(-c3nc(Nc4ccc(CNC(=O)CCCCCCC(=O)NO)cc4)ncc3F)cc2n1C(C)C` is reported as 47% (enzyme activity, inhibitor; 1 µM).
With `C[C@H]1CN(C(=O)c2cn(-c3ccnc(N)n3)c3cc(C#CC4(O)CCCCC4)ccc23)CCN1` the inhibition was 6% (enzyme activity, inhibitor, FRET; 1 µM).
`COc1cc(Nc2nccc(-c3cnn4nc(OC)ccc34)n2)cc(C(F)(F)F)c1` gave a remaining binding of 75% (binding, competition with immobilised ligand; 1 µM).

Excerpt of the above:
The remaining binding of `C=CC(=O)N1CCc2ccc(-n3c(=O)ccc4cnc5ccc(-c6cnn(C)c6)cc5c43)cc21` is reported as 100% (KINOMEscan; 1 µM; baseline: DMSO control).
The remaining binding of `Cc1ccc(-c2c(/C=C(\C#N)C(=O)NC(C)C)n(CCCO)c3ncnc(N)c23)cc1` is reported as 69% (cell-free assay, competition with immobilised ligand; 1 µM).
